Assay results collected from several papers.
Every numbered part comes from another study and shows a few of its results, in no order.

Block 1
Cell line: yeast with cyclin D1-Cln2 chimera
Read-out: cell growth
Action: binder
Method: competitive growth deep sequencing
Form: peptide
Tested at: concentration not given
Setting: peptide tiling library
Reading: direction not given
Molecule	growth enrichment score
TLPYDLACTGGDFVLF	1.46
HPESPPRKRLKSKGSD	0.441
SNFFDVIKQLFSDEKN	-2.39
MNQELLSVGSKRRRTG	0.469
TSSAQRRLEIPSGGAD	-0.431
IFNKPECGRVQRAIFQ	-0.104
ASVLSKPIFCFVKD	1.55
TQERKQIHCLSEDELS	1.5
DWDTVERQEEEAPSWD	1.73

Block 2
Target: Histone acetyltransferase KAT6A, both winged helices, GST fusion (KAT6A, Homo sapiens, UniProt Q92794, residues 1-181)
Method: protein binding microarray
Form: double-stranded DNA, one strand shown
Medium: in vitro
Tested at: not given
Setting: 8-mer, flanks averaged, mean of 2 arrays, mostly near background
Baseline: not given
Reading: higher = stronger binding
Construct (chain): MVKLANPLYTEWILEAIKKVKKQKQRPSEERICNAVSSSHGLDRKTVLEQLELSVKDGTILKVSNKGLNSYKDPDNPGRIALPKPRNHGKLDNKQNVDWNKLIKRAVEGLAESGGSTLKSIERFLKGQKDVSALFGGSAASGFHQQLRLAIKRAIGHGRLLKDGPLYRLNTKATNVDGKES
Sequence	E-score
CTTAAAAG	-0.188
GCCAAGTA	-0.251
AAGCTGCC	-0.0374
AAGGACCG	0.00565
GCAGAGTA	-0.0595
CCGGAATA	0.0188
GTAAAGAC	0.0618
AAATTGCA	-0.136
ATAAGCGC	0.256
GCGTGACA	0.1
AGGCTAAG	-0.139
AACGAGGT	-0.00374
AACTCCCC	-0.06
AATGCGCC	0.237
CTGGCGGA	-0.0129
GGTGGTAC	-0.11
CGGGAAAA	0.174
CCAGGGGC	-0.0616
ACAGGAAG	-0.074
AACCTGTG	-0.234
ATCAGTCG	0.0172
AAGCAATG	-0.126
AGTCTCGG	0.114
AAACAAGT	-0.0471
CGACCGAA	-0.00491

Block 3
Target: Interferon regulatory factor 7, full length, phosphomimetic (IRF7, Homo sapiens, UniProt Q92985, residues 1-503, S471D/S472D/S475D/S476D/S477D/S483D/S484D/S487D)
Method: protein-binding microarray
Form: double-stranded DNA, one strand shown
Medium: in vitro
Tested at: 2200 nM top
Setting: 60-bp whole probe
With: salmon DNA 0.4 mg/ml
Baseline: random background probes
Reading: higher = stronger binding
Shared flanks, not repeated: GCCTAGCAC … GTCTTGATTCGCTTGACGCTGCTG
Residues (chain): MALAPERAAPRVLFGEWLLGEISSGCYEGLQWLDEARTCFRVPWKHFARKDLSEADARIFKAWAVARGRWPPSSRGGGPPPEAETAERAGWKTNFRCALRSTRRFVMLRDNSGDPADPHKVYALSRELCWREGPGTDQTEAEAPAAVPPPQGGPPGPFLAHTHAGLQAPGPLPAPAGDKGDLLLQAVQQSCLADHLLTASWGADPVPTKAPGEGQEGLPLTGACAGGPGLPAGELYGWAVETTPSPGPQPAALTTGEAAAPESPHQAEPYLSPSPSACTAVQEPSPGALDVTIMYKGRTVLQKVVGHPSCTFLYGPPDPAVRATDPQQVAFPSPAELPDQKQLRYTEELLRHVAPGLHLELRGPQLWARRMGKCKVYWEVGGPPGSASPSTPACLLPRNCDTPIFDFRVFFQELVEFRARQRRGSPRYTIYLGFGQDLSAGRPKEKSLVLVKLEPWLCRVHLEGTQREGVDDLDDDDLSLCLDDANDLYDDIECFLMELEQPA
Sequence	fitted relative affinity [z-score]
GACGGACTGCTTATGCTGACGTGCTAG	-0.0841
TTAGGTTTCGACTATCGTTTAGTGCTA	3.33
GACGGTCTCTTACTGCTGACGTGCTAG	0.639
TCATGTTTGGGCATTTTTACTGTGCTA	0.433
GACGGACTGTTACTGCTGACGTGCTAG	0.371
GGCGGTTTCCTTTTCCTGACGTGCTAG	5.75
AACGATATCGGGTTTCGAGACGTGCTA	1.83
GACGATTTAGGGACTGGAGACGTGCTA	-0.179
CACGATTTCGGGTTTCGAGACGTGCTA	5.75
GACGGTTCCGGTTTAGGGACGTGCTAG	3.35
GCCGGTTTCCTTTTCCTGACGTGCTAG	6.72
TTAGGACTGCTACTTCTTTAGTGCTAG	-0.0387
TTAGGTTTCGGGGTTCGGTTAGTGCTA	3.77
GACGATATCGGGGCTGGAGACGTGCTA	-0.0198
GACGGTCTTGGTCTCGGGACGTGCTAG	-0.124
TTAGGTTTCGACACTGGCTTAGTGCTA	2.07
GTCGGTCTCCTTTTCCTGACGTGCTAG	2.36
GACGGTTTCCTTATCCTGTCGTGCTAG	3.4
GACGGTATCTACTTTCGGGACGTGCTA	5.1
TTAAGTCTCCTTCTCCTTTAGTGCTAG	1.15
TTAGGTCACGGTTTCGGTTAGTGCTAG	5.38
GACGGACTGCGACTGGGGACGTGCTAG	-0.834
CAATACCTTATGAATGTGTTGTGCTAG	0.854
GACGATCTCAGTATGGAGACGTGCTAG	-0.37
GACGGTTTCGGCCTGGGGACGTGCTAG	3.28

Block 4
Target: RNA binding protein fox-1 homolog 2, RRM domain, GST-SBP tag (RBFOX2, Homo sapiens, UniProt O43251-10, residues 100-194)
Method: RNA Bind-n-Seq
Form: RNA
Medium: in vitro
Tested at: 365 nM
Setting: natural RNA segment, single round, ends assumed
Baseline: no-protein control
Reading: higher = stronger binding
Shared flanks, not repeated: GGGAGUUCUACAGUCCGACGAUC … UGGAAUUCUCGGGUGCCAA
Target sequence (chain): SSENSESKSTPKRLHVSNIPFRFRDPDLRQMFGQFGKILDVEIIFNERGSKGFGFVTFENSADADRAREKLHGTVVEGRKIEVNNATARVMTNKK
Sequence	RBNS enrichment (R)
GUUACCGCCAAGGCCCGUCAGCUGUGUAGUGGCAAAGCCGAGACCGAGUCUCCUAAGUCCCCGUCAGUGUGGUUUUCACCACAGGACUGUCUCUUGUCGUUUUCCCCUAA	0.369
GAUGGGAUUUUUCAAAGCGGCCAACACUUCACUAAUGUUUCAAAUCAAAACCUUGAGGCUAAUAUUACACUCAGGCCACACUCAGCACUUGCCUCCUCUUGUUUACUGCC	0.403
AAAUGACGUUUAUUAAAAACAUUCAACAAAUUGUUGCCUUUUUAAAAUUAUCACACUUGCACAUGAAGAUAAAACAUGAAGUAAUUGUGCUGGUAGCCUUUUGGGAAUUG	0.291
UCAGACAGCCAGGCACCAGAAGUGAGAGCAGAAGUCUGCAUCCUGCCGAGCCGCCGCAGACGGAGCCCCGCUGCUGACUGGACCCUCUCUGGCCCUGUGGUUCGGUUCUC	0.347
CAUGACACAUGCCUCUGGCAAAGCCAUCCAGCCUGUACUGCCUCCGUGGAAGGCCUAGACCCAGCAGAGACCCCUUGGUGGGUCUGCCAUGCCUGUGGGGAAACACUGCU	0.772
AUCUUUCCUUUUUAAUGAAAACAUUAGCAUGUUAAUACCCCGUAUGAAUAAUGCCUGACAUUCAACAAUUGUGGAAAUAUGUUGGUAUGUUGCUGAACAUACAUACACCU	0.326
UGCUUUCCUUCCUCGCUACUUCCUAAAAAGCAACAAAAAAGUUUUUGUGAAUGCUGCAAGAUUGUUGCAUUGUGUAUACUGAGAUAAUCUGAGGCAUGGAGAGCAGAUUC	13.5
UUUAAAGGCAAGUGGUGUCCAAGAAACAGAGCAUCCUUCCUGCCGUUCAACGCUCAGCUUUUCCGAAAACCUAAAGCUUGUGUUCUCUUUGCUUUGACUGCAAAUUGUAC	0.396
UUAAGACACAAUAUUGUAAUCCCUACUCUAGGCACUUGCCUUUAAACUAUGUUUUUCAGCCCUUCAGAAGGGUUCUACUACUGUCCUAUACAAUCAAGUAACUGAAAUUC	0.273
CGGGAUAGAAUGGCUGUCCAGUCUAAGCUCAGGGCAGCCUCUUCAACCACUGUUGGCCCAGCCUGGCUUGUGAGGAAACCAGCCCUGUCCCUCAGUAUUGAACUUGGCUG	0.306
GAGGUCACAUGCAGGACUGGGGUGGCCACUUGGCAGAGUCCUUGGGGUUCAGACCUCCACAGGCUAGGUAGCUCAGCUUGCUUACAGACUGGAGACAUUUUCUUGUGUGG	0.724
GGCCUCCAGGACAUCUGCACCCCCUCCCCACCUCCACGGACCUCGGACCUCCAGGCGGCUCAGUGCUGCCUGCGGCCCAGCUAAGGGGCCUGGCCACUGGGUGCCACCCA	0.24

Block 5
Target: Sal-like protein 4, full length isoform A (SALL4, Homo sapiens, UniProt Q9UJQ4, residues 1-1053)
UniProt Q9UJQ4, sequence (whole entry, looked up): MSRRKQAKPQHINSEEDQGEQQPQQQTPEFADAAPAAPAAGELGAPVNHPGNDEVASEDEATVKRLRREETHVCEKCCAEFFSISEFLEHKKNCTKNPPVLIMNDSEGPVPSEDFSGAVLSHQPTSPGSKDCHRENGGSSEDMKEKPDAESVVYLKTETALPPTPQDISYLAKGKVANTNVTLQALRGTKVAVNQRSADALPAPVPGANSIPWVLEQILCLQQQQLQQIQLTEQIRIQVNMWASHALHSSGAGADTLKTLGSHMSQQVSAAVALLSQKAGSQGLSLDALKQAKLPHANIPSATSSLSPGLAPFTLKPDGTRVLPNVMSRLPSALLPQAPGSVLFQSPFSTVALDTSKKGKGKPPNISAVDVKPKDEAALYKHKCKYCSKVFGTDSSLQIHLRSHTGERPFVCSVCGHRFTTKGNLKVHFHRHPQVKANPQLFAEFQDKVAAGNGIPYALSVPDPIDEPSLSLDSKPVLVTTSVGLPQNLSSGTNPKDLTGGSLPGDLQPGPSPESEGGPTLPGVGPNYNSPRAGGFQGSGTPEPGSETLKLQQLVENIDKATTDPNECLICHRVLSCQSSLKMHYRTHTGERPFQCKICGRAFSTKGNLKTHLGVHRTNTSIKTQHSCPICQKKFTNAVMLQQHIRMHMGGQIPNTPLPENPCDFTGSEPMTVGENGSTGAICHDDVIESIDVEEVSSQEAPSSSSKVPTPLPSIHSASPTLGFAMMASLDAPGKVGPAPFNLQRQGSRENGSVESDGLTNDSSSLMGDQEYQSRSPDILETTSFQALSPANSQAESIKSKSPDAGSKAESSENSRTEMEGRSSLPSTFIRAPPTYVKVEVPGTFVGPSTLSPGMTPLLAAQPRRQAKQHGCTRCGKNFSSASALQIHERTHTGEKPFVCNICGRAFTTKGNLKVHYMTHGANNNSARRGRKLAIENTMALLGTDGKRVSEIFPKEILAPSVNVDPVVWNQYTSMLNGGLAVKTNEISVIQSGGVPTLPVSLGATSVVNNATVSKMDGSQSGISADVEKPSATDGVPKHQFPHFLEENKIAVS
Method: universal PBM
Form: double-stranded DNA, one strand shown
Medium: in vitro
Tested at: 600 nM
Setting: 8-mer, flanks averaged, mean of replicates
Reading: higher = stronger binding
Sequence	E-score
AGACATCT	0.0809
GCGGGCTA	-0.226
CCATCGAC	-0.0806
AACCGAGT	-0.104
GCCGCGCC	-0.367
CAGGTCTC	-0.219
CACGACTG	-0.2
CTGTCGGA	-0.0851
AAGGGTTC	-0.147
TCTACAAA	0.139
ACCCCACC	-0.0704
ATCTATGG	-0.0675
CCTGAGCC	-0.28
GTCAACAA	0.0669
AGGTTGGA	0.00419
GAGTAATA	0.323
AGTACTAG	0.0793
CAGCTGTC	-0.0812
CAGTACAA	0.0805
CTGCCTTA	-0.0836
GAGTGGGA	-0.117
AGTGGCAG	-0.185
CTTCGTCA	0.0259
ACAAGTAG	0.0632
ATCGCAAG	-0.108

Block 6
Target: TAR DNA-binding protein 43, full length, His tag (TARDBP, Homo sapiens, UniProt Q13148, residues 1-414)
Method: RNA Bind-n-Seq
Form: RNA
Medium: in vitro
Tested at: 20 nM
Setting: 6-mer, flanks averaged, single round
With: 150 mM KCl
Baseline: input library
Reading: higher = stronger binding
Sequence	6-mer enrichment (R)
AAAAAG	0.777
CAACCU	0.588
CUUCUA	0.542
ACACGA	0.68
GCACAU	0.732
UCUGUC	0.584
GUGAUC	0.779
CGAAGU	0.755
CUGACU	0.612
GUGGGG	7.74
CAGAUG	0.854
UCCUGG	0.856
GCCUUA	0.684
UUCAUU	0.558
AGUGCG	1.61
ACCGCU	0.634
GGUCUA	0.838
CGAAAA	0.642
GAGCAU	0.874
CCGCGG	1.57
UGGGCU	1.78
GGCUCG	1.57
CAUUGG	0.879
CUUGAG	0.86
UCGCGU	0.786
